Measured values collected from several papers.
≈ marks a conversion by molar mass, not a printed value.
Organism: Enterococcus faecalis

| Molecule | test | test system | conditions | MIC [µg/mL] |
| --- | --- | --- | --- | --- |
| chlorobiphenyl vancomycin |  | BM4166, VanA | 16 h, 37 °C | 2.5 |
| COc1cc2cc(-c3cccc(-c4ccc(C(C)(C)C)cc4)c3)[n+](C)c(C)c2cc1OC.[I-] | broth microdilution | ATCC 51575 VRE, brain heart infusion broth | 24 h, 37 °C | 4 to 8 |
| teicoplanin aglycone |  | ATCC 47077 glycopeptide sensitive | 18 h, 37 °C | 8 |
| COc1cc(-c2cc3cc(OC)c(OC)c(OC)c3c(C)[n+]2C)cc(-c2ccc(-c3ccccc3)cc2)c1OC.[I-] | broth microdilution | ATCC 51575 VRE, brain heart infusion broth | 24 h, 37 °C | 4 to 8 |
| O=C(COc1ccc(-c2nc3ccccc3[nH]2)cc1)N1CCOCC1 | microbial growth, broth dilution | ATCC29212 |  | > 256 |
| Cc1cc(C)n(C(N)=S)n1.Cc1ccc(C(C)C)cc1.[Cl][Ru][Cl] | broth microdilution | ATCC 29212 | 37 °C | 62.5 |
| Clc1ccc2nc(-c3ccc(OCc4cn(CCN5CCOCC5)nn4)cc3)[nH]c2c1 | microbial growth, broth dilution | ATCC29212 |  | > 256 |
| Cc1ccc(C(C)C)cc1.Cc1ccc(C(C)C)cc1.[Cl][Ru][Cl].[Cl][Ru][Cl] | broth microdilution | ATCC 29212 | 37 °C | > 1000 |
| O=C(COc1ccc(-c2nc3ccc(Cl)cc3[nH]2)cc1F)N1CCOCC1 | microbial growth, broth dilution | ATCC29212 |  | > 256 |
| CCC[C@H]1c2ccccc2C=NN1C(=O)/C=C/c1cc(Cc2cnc(N)nc2N)cc(OC)c1OC (racemic) |  | ATCC 29212 | with: folinic acid 0.1 µg/mL | 0.06 to 0.125 (≈ 0.123 to 0.257 µM) |
| CCN(CC)CCOc1ccc(-c2nc3ccc(Cl)cc3[nH]2)cc1F | microbial growth, broth dilution | ATCC29212 |  | 64 (≈ 177 µM) |
| vancomycin | broth microdilution | BM4166, VanA |  | 2000 |

Some of these lines once more:
| Molecule | test | test system | conditions | MIC [µg/mL] |
| --- | --- | --- | --- | --- |
| vancomycin | broth microdilution | BM4166, VanA |  | 2000 |
